{"data": "Measurements from different studies", "cell line": "SK-MEL-28", "note": "Protocols differ between the studies behind these lines. Values joined by “and” are separate records of one study, mostly repeats; a detail may differ. ± marks the error that the study gave."}
{"SMILES": "Cc1cccc(-c2cccc(C)n2)n1.Cc1cccc(-c2cccc(C)n2)n1.F[P-](F)(F)(F)(F)F.F[P-](F)(F)(F)(F)F.[Ru+2].c1ccc2c(c1)Cc1cc(-c3nc4c5cccnc5c5ncccc5c4[nH]3)ccc1-2", "assay": "cell viability", "conditions": "normoxia, added: green light 523 nm, 100 J/cm2", "quantity": "EC50", "result": "20.8 ± 0.5 µM"}
{"SMILES": "[Cl-].[Cl-].[Ru+2].c1ccc(-c2ccccn2)nc1.c1ccc(-c2ccccn2)nc1.c1ccc2cc3nc4c5cccnc5c5ncccc5c4nc3cc2c1", "assay": "cell growth, SRB", "conditions": "dark, 1% O2 hypoxia", "quantity": "GI50", "result": "37.9 µM"}
{"SMILES": "CCN(C(=O)c1cc(F)ccc1Oc1nncnc1N1CCC2(C1)CN([C@H](CCCN(C)CCOC)C(C)C)C2)C(C)C", "assay": "cell growth or viability", "conditions": "72 h", "quantity": "GI50", "result": "> 10 µM"}
{"SMILES": "Cc1cccc(-c2cccc(C)n2)n1.Cc1cccc(-c2cccc(C)n2)n1.F[P-](F)(F)(F)(F)F.F[P-](F)(F)(F)(F)F.[Ru+2].c1cc2ccc3ccc(-c4nc5c6cccnc6c6ncccc6c5[nH]4)c4ccc(c1)c2c34", "assay": "cell viability", "conditions": "normoxia, added: green light 523 nm, 100 J/cm2", "quantity": "EC50", "result": "3.2 ± 0.1 µM"}
{"SMILES": "Cc1ccnc(-c2cc(C)ccn2)c1.Cc1ccnc(-c2cc(C)ccn2)c1.F[P-](F)(F)(F)(F)F.[Ru+2].[c-]1cccc2c1c1ncccc1c1[nH]c(-c3ccc(-c4cccs4)s3)nc21", "assay": "cell growth or viability, resazurin", "conditions": "dark", "quantity": "EC50", "result": "0.38 µM"}
{"SMILES": "[Cl-].[Cl-].[Ru+2].c1ccc(-c2ccccn2)nc1.c1ccc(-c2ccccn2)nc1.c1ccc2cc3nc4c5cccnc5c5ncccc5c4nc3cc2c1", "conditions": "visible light, oxygen 1%", "how to read": "reference: dark EC50 over light EC50", "quantity": "phototherapeutic index", "result": 1}
{"SMILES": "CC(C)c1ccc(N(C)c2ccc3c(c2)OCC[C@H]3CNc2cnccc2C(=O)O)cc1", "assay": "cell growth or viability, ATP luminescence", "conditions": "7 days", "quantity": "IC50", "result": "0.00556 µM"}
{"SMILES": "CC(C)(C)c1cc(-c2ccc3cccnc3n2)nc(-c2ccc3cccnc3n2)c1.COc1ccncc1.[Cl-].[Cl-].[Ru+2].c1ccc2cc3nc4c5cccnc5c5ncccc5c4nc3cc2c1", "conditions": "visible light, oxygen 1%", "how to read": "reference: dark EC50 over light EC50", "quantity": "phototherapeutic index", "result": 1}
{"SMILES": "Cc1cccc(-c2cccc(C)n2)n1.Cc1cccc(-c2cccc(C)n2)n1.F[P-](F)(F)(F)(F)F.F[P-](F)(F)(F)(F)F.[Ru+2].c1ccc(-c2nc3c4cccnc4c4ncccc4c3[nH]2)cc1", "assay": "cell growth or viability, resazurin", "conditions": "dark", "quantity": "EC50", "result": "101 µM"}
{"SMILES": "Cc1ccc([N+](=O)[O-])cc1S(=O)(=O)N(C)/N=C/c1cnc2ccc(Br)cn12", "assay": "cell growth or viability", "quantity": "IC50", "result": "1.69 µM"}
{"SMILES": "Cc1ccnc(-c2cc(C)ccn2)c1.Cc1ccnc(-c2cc(C)ccn2)c1.F[P-](F)(F)(F)(F)F.[Ru+2].[c-]1cccc2c1c1ncccc1c1[nH]c(-c3ccc(-c4ccc(-c5cccs5)s4)s3)nc21", "assay": "cell growth or viability, resazurin", "conditions": "dark", "quantity": "EC50", "result": "5 µM and 5.1 µM and 5.11 µM"}
{"SMILES": "C1=[N+]2CCCC[N+]3=Cc4ccc5[n]4[Au-]23[n]2c1ccc2-c1nc2ccccc2nc1-5.F[P-](F)(F)(F)(F)F", "assay": "NCI60 five-dose screen", "quantity": "TGI", "result": "4.35 -log M"}
{"SMILES": "Cc1cccc(-c2cccc(C)n2)n1.Cc1cccc(-c2cccc(C)n2)n1.F[P-](F)(F)(F)(F)F.F[P-](F)(F)(F)(F)F.[Ru+2].c1ccc2c(-c3nc4c5cccnc5c5ncccc5c4[nH]3)c3ccccc3cc2c1", "conditions": "normoxia, added: green light 523 nm, 100 J/cm2", "how to read": "reference: dark over light EC50", "quantity": "phototoxicity index", "result": 28}
{"SMILES": "[Cl-].[Cl-].[Ru+2].c1cnc2c(c1)ccc1cccnc12.c1cnc2c(c1)ccc1cccnc12.c1csc(-c2ccc(-c3nc4c5cccnc5c5ncccc5c4[nH]3)s2)c1", "conditions": "normoxia, added: green light 523 nm, 100 J/cm2", "quantity": "phototherapeutic index", "result": "~200"}
